Measured values from different studies.
Parts stem from different laboratories: compare values within a part only. Positions count from the first letter of the parent shown.

Sample 1 — technique: competition protein-binding microarray; form: double-stranded DNA, one strand shown; sample: in vitro; tested at: 2 µM; together with: Cbf1 competitor, 0.05 µM; reading: higher = stronger binding; shared flanks, not repeated: … GTCTTGATTCGCTTGACGCTGCTG
Target: Phosphate system positive regulatory protein PHO4, full length, GST-tagged (PHO4, Saccharomyces cerevisiae, UniProt P07270, residues 1-312)
Notes: whole 60-bp probe, lowest competitor level
Target sequence (chain): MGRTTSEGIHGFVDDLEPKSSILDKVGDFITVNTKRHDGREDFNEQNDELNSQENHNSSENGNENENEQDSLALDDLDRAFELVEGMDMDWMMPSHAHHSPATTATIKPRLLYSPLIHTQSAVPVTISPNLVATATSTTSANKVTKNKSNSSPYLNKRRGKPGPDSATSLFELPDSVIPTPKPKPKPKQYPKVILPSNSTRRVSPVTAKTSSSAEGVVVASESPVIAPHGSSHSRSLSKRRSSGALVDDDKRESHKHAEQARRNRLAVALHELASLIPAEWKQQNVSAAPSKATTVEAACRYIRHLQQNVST
`AAATTACTAAGTTGAGATGTGGGTGACGCCGTATGA` has a fluorescence intensity of 5000 a.u.
For `CATACCCAACCTTGGCCCGTGGGTGAAGATATTTGT`, the fluorescence intensity was 10500 a.u.
With `CTAACGAAGGTTTGCGGAGTGGGTGACAAGCCAAGT` the fluorescence intensity was 3470 a.u.
`CCCTCCCAGTTCTCGCGCGTGTGGAGAGTGGGTTCT` gave a fluorescence intensity of 6890 a.u.
`GGATAATGCTTTTTTCCCGTGGCCGTTACATTTTTG` gave a fluorescence intensity of 6220 a.u.
`GTCTTGTCTCATTGATCGGTGGGTGTCCCCACTTCA` has a fluorescence intensity of 4650 a.u.
For `TAATACTATCTCCAACACGTGAATTAGCAAGCCAAA`, the fluorescence intensity was 14900 a.u.
With `CTCTATCTTGTACGCAACGTGTGGAGCTTTATTCTA` the fluorescence intensity was 14900 a.u.
With `CACACCCAATTTTTGCACGTGCTTTAATAGTAGTTT` the fluorescence intensity was 21700 a.u.
`GTTTGATAGCTGGTTTACGTGCATCTCAAACAGAGA` gave a fluorescence intensity of 5380 a.u.
For `CTAACGAAGGTTTGAGAAGTGGGTGACAAGCCAAGT`, the fluorescence intensity was 3510 a.u.
The fluorescence intensity of `CGTCCTAGTGATTGGATGGTGGGTGCCATGAGGAAG` is reported as 7410 a.u.
With `TACAAGGTTATCCTGATCGTGCGGACAAGAAGATCA` the fluorescence intensity was 6570 a.u.
For `CTTCATTTTGGGTGGCACATGGCAAAGCAATGTCGA`, the fluorescence intensity was 11500 a.u.
`ATGGATTGTCTCTGGCACGTTCCACTGGTGGCTCAG` has a fluorescence intensity of 14800 a.u.
`AGTGCTCCGTTAAAGCCTGTGACAGTAGCAACGACA` gave a fluorescence intensity of 3460 a.u.
The fluorescence intensity of `TAGCACAGGCACCCGCACACGCAGAGCTCACAGACC` is reported as 9240 a.u.
`CCTATTATTGTTTGTCACGATGTCTTGGCTCAAGCT` has a fluorescence intensity of 9220 a.u.
The fluorescence intensity of `CGTCCTAGTGATTGGGGCGTGGGTGCCATGAGGAAG` is reported as 9930 a.u.
With `CATACCCAACCTTTTCACGTGGACTAAGATATTTGT` the fluorescence intensity was 16400 a.u.
`ATCTTCTTTCACAATCACGTGAAACTTCCTCGATAT` gave a fluorescence intensity of 11900 a.u.
`CTAACGAAGGTTTGACCTGTGGGTGACAAGCCAAGT` gave a fluorescence intensity of 4340 a.u.
The fluorescence intensity of `TCCTTCTACAATCCTTTCGTGACGAATATTGAATCA` is reported as 4210 a.u.
The fluorescence intensity of `ATGGACCCGCATAGAAACGTGAGACTGAGAGGATAT` is reported as 9190 a.u.
The fluorescence intensity of `GTCTTGTCTCATTGTCACACAACTTTCCCCACTTCA` is reported as 4700 a.u.

Sample 2 — target: CCNA2, cyclin fold, Cln2 fusion (human); technique: yeast growth competition, sequencing; sample: yeast; notes: strong parent motif; baseline: not given; reading: higher = stronger binding
Starting sequence: E2F1 docking peptide (human); PPVKRRLDFETDH; partner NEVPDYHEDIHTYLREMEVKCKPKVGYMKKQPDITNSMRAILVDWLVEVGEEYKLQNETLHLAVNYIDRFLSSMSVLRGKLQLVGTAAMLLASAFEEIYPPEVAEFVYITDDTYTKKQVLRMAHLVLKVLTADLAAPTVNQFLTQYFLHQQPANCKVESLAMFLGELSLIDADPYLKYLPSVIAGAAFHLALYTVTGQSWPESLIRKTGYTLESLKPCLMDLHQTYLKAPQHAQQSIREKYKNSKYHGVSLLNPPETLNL
For `P2A`, “normalised enrichment score” read 6.19.
For `V3G`, “normalised enrichment score” read 4.93.
`K4D`: “normalised enrichment score” 2.58.
`E10P`: “normalised enrichment score” 5.9.
`K4C` — result for “normalised enrichment score”: 5.03.
For `E10I`, “normalised enrichment score” read 6.1.
For `F9R`, “normalised enrichment score” read 0.787.
`D12C`: “normalised enrichment score” 5.99.
Under “normalised enrichment score”, `V3L` is recorded as 4.33.
For `D12N`, “normalised enrichment score” read 6.25.
Under “normalised enrichment score”, `R5G` is recorded as 1.73.
`V3E`: “normalised enrichment score” 0.717.
`D8P` — result for “normalised enrichment score”: 5.71.
`V3Q` — result for “normalised enrichment score”: 2.47.
`F9D` — result for “normalised enrichment score”: -0.382.
`R6P`: “normalised enrichment score” 2.76.
`E10A` — result for “normalised enrichment score”: 6.21.
For `E10N`, “normalised enrichment score” read 6.4.
`V3D` — result for “normalised enrichment score”: 0.112.
`R6E`: “normalised enrichment score” 4.68.
`L7H`: “normalised enrichment score” 0.169.

Sample 3 — technique: two-hybrid; baseline: out of 4 tests; reading: higher = firmer interaction
Partner: ARF20 484-590 (Arabidopsis thaliana, UniProt Q9C7I9)
B1: ARF11 500-622 (Arabidopsis thaliana, UniProt Q9ZPY6); chain SPKEQKQQTSTRSRIKVQMQGTAVGRAVDLTLLRSYDELIKELEKMFEIEGELSPKDKWAIVFTDDEGDRMLVGDDPWNEFCKMAKKLFIYPSDEVKKMRSKSLLGDKGTIVNLESDQRTVHV
B2: ARF14 497-605 (Arabidopsis thaliana, UniProt Q9LQE8); chain SPTEIQSKQFSSTRTCTKVQMQGVTIGRAVDLSVLNGYDQLILELEKLFDLKGQLQARNQWEIAFTNNEEDKMLVGEDPWPEFCNMVKKIFIYSKEEVKNLKSRKSLSS
B3: IAA33 (Arabidopsis thaliana, UniProt Q9FKM7); chain MNSFEPQSQDSLQRRFHQDNSTTQQPRDTTTPFIPKPASKNHNNSNSSSGAAGRSFQGFGLNVEDDLVSSVVPPVTVVLEGRSICQRISLDKHGSYQSLASALRQMFVDGADSTDDLDLSNAIPGHLIAYEDMENDLLLAGDLTWKDFVRVAKRIRILPVKGNTRQVKRNE
B4: ARF7 1030-1164 (Arabidopsis thaliana, UniProt P93022); chain PAQTQRMRTYTKVQKRGSVGRSIDVNRYRGYDELRHDLARMFGIEGQLEDPQTSDWKLVYVDHENDILLVGDDPWEEFVNCVQSIKILSSAEVQQMSLDGNFAGVPVTNQACSGGDSGNAWRGHYDDNSATSFNR
B5: ARF1 538-665 (Arabidopsis thaliana, UniProt Q8L7G0); chain SRQIRSCTKVHMQGSAVGRAIDLTRSECYEDLFKKLEEMFDIKGELLESTKKWQVVYTDDEDDMMMVGDDPWNEFCGMVRKIFIYTPEEVKKLSPKNKLAVNARMQLKADAEENGNTEGRSSSMAGSR
Residues (chain): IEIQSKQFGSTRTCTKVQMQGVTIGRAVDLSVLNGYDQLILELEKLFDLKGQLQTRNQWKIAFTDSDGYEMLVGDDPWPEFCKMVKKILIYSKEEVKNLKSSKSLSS
With `B1 (ARF11 500-622)` the positive tests was 0.
For `B2 (ARF14 497-605)`, the positive tests was 0.
For `B3 (IAA33)`, the positive tests was 3.
For `B4 (ARF7 1030-1164)`, the positive tests was 2.
The positive tests of `B5 (ARF1 538-665)` is reported as 0.

Sample 4 — technique: EMSA with sequencing; form: double-stranded DNA, one strand shown; sample: in vitro; tested at: 10 and 20 nM; baseline: negative control set to 0; reading: higher = stronger binding
Target: Hepatocyte nuclear factor 3-alpha (Foxa1, Mus musculus, UniProt P35582, residues 1-468, full length assumed)
Notes: whole designed probe, mean of two concentrations, ends assumed
Shared flanks, not repeated: GTGAGCGGTGCCCATTGATGGGGAAC … TTTCACTGGGATCGTGGGGAC
Residues (chain): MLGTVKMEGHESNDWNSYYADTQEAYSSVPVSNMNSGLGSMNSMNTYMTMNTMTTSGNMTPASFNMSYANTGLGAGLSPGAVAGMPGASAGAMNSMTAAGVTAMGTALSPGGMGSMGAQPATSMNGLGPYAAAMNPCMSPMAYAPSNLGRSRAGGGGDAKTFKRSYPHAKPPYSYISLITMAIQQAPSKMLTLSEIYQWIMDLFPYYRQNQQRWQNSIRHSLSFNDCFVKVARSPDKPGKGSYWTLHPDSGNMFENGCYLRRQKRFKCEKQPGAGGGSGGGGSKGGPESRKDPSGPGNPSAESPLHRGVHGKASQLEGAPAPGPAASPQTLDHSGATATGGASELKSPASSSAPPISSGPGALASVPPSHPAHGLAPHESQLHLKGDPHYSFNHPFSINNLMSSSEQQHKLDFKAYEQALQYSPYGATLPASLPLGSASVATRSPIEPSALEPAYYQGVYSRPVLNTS
Under “normalised bound fraction”, `GGGTTCTTCTGAAGGCACATTGCACCTTCTAGAAGGGTATGACTCAGAAGGAAAGAGAGAAAAACCTCTACTGGCAAGAGGAAATGGCTGCAGTGTTTACTTTATCTGAAAATGGCACACGCTTTTATTAAGACATAAATGCCAGTGATGGATTCTGCTCTTGGCGTGTGGCTGTGCTCCCCAGCCCTGAGGT` is recorded as 0.403 ratio.
`TTTTTTCTGTACAGGGAAAAATAGTGAATATTTCAAAATTGTGAAACAAAGAGTCTCTGTGGCAACTACTCATTAGACAGTTGCATAACATATGCAAACAAATGAGTGTGTCTGTGTTCCAATAAAACTGTATTTACAAAAGCAGAAGGCCACCCATGTGCCAATGTCCAAAGTTTCTCAACCAACCCCTGGT` — result for “normalised bound fraction”: 0.412 ratio.
For `GAGGGGACGCCCTGGAGCTCAGGTGCTCAAGGGCGTGCGCGGGGCTCGGCCGCCGGTGTCCCTGGAGATGCTTCTCTGGTCTGGTGTGACACGTGTGTACACAGTCCCCGCCCTCTCGTGAGCGCCCGGGTGCGTGTGCTCCCTCCCGACCACCCTGAGGAGCGAGGGTGCTGGTCCCCGAGAGGGCGGCGAG`, “normalised bound fraction” read 0.152 ratio.
Under “normalised bound fraction”, `TCCTTTATCCCAACATGTTTATACAGACAAAACCAGGTTAAAATCGACACAAGGTCAACTTGAAATGGGGAGACAAGAGGAAGGTGTCACAAAATAAACATGAAGTCTTGTGTACAAGCATCTGCAGAAGAGTTCAGCCTCACCACTTGGGTAATGCTGTTGGAATGTGGTCTGGGTTCACTGTATTTGAATG` is recorded as 0.398 ratio.
For `TTTCTTTAAAGTCCATTAACTTTACTTAAGAATACATCCTGGTATTGGTCATTCTTGATATTCTCAGGTACACAGTGTATTTATTTATTTATTTATTTACTTTTGAGATGAAGTCTCGCTCTGTCACCCAGGCTGGAGTGCAGTGGCACGATCTTGGCTCACTGCAACCTCCACCTCCTGGGTTCAAACAATT`, “normalised bound fraction” read 0.536 ratio.
`GCTCAAGGAGATATCCCTAAACTGAGGATGGCTTGAAAAATCACAACTTTACATAAAATTTTAAATCATCCACACAAATGAGATCATATTGCTGTTTACATTGTCAGGTGTCTTAACTCATGTCACCGATAAGTAGAAAATGGGTATAAGTGCTGGCACTGACTAAGTCAATAAAAATGAACTTATGTGAATT`: “normalised bound fraction” 0.438 ratio.

For quick reference, copied from above (sample 2):
For `E10N`, “normalised enrichment score” read 6.4.
`V3Q` — result for “normalised enrichment score”: 2.47.
`L7H`: “normalised enrichment score” 0.169.
`V3E`: “normalised enrichment score” 0.717.
`E10A` — result for “normalised enrichment score”: 6.21.
`R6P`: “normalised enrichment score” 2.76.
